Assay results pooled from the literature.
Protocols differ between the studies behind these lines. Values joined by “and” are separate records of one study, mostly repeats; a detail may differ. Numbers after ± are the reported error.

CC[n+]1cccc2cc(/C=N/NC(=O)c3cc(C(=O)N/N=C/c4ccc5c(ccc[n+]5CC)c4)ncn3)ccc21  ΔTm (myc22 MYC G4-DNA parallel; FRET melting; 1 µM, K1 buffer, DNA 0.2 µM): 3.9 ± 0.2 °C
O=C1NC2(CC2)COc2ncc(F)cc2[C@H]2COCCN2c2ccn3ncc1c3n2  revertant colonies (Salmonella typhimurium; Ames test; TA98; 150 µg/plate, 48 h, together with: rat liver S9): 21 ± 3 revertants/plate
c1ccc(-c2n[nH]cc2-c2ccnc3ccccc23)nc1  log2 fold change (PKH3 (Candida albicans); kinase binding, MIB/MS competition; Candida albicans lysate; 1 µM; baseline: DMSO): -0.08
CNC(=O)C1CCCN(C(=O)C2CC3CCC2N3C(=O)[C@@H]2C[C@@H](O)CN2C(=O)NCc2cccc(Cl)c2F)C1 (mixture of isomers)  remaining activity (Cytochrome P450 2C9 (CYP2C9, Homo sapiens, UniProt P11712); preincubation with NADPH; human; 0.0686 µM; baseline: negative control): 101% and 92.4% and 104%
CC(C)C[C@H](NC(=O)[C@H](Cc1ccc(O)cc1)NC(=O)[C@@H](CCCNC(=N)N)NC(=O)[C@@H](CO)NC(=O)[C@H](Cc1ccccc1)NC(=O)[C@H](CC1CCCCC1)NC(=O)[C@H](CC(=O)O)NC(=O)CN1CCN(CC(=O)O)CCN(CC(=O)O)CCN(CC(=O)O)CC1)C(=O)N[C@@H](Cc1c[nH]c2ccccc12)C(=O)N[C@@H](CO)C(=O)O [copper-64 labelled]  activity concentration (human, heart; concentration not given, 1 h): 3580 Bq/mL and 5730 Bq/mL and 6720 Bq/mL and 4010 Bq/mL and 4070 Bq/mL and 5270 Bq/mL
CCN(C(=O)c1cc(F)ccc1Oc1nncnc1N1CCC2(C1)CN([C@H](CCCN(C)CCOC)C(C)C)C2)C(C)C  GI50 (Granta-519; cell growth or viability; 72 h): > 10000 nM
C[n+]1cccc2cc(/C=N/NC(=O)c3cncc(C(=O)N/N=C/c4ccc5c(ccc[n+]5C)c4)n3)ccc21  ΔTm (myc22 MYC G4-DNA parallel; FRET melting; 1 µM, K1 buffer, DNA 0.2 µM): 19.5 ± 0.2 °C
CCCC[C@H](NC(=O)CCCCCCCNC(=O)CN1CCN(CC(=O)O)CCN(CC(=O)O)CC1)C(=O)N[C@H]1CC(=O)NCCCC[C@@H](C(N)=O)NC(=O)[C@H](Cc2c[nH]c3ccccc23)NC(=O)[C@H](CCCNC(=N)N)NC(=O)[C@@H](Cc2ccccc2)NC(=O)[C@H](Cc2c[nH]cn2)NC1=O [technetium-99m labelled]  tissue uptake (C57 mouse, heart; intravenous, 0.037 MBq, 2 h): 0.09 ± 0.03 %ID/g
C[n+]1ccc(/C=N/NC(=O)c2cccc(C(=O)N/N=C/c3cc[n+](C)c4ccccc34)n2)c2ccccc21  ΔTm (myc22 MYC G4-DNA parallel; FRET melting; 1 µM, K1 buffer, DNA 0.2 µM, together with: ds26 10 µM): 25 ± 0.3 °C
C=C(NC(=O)c1csc(-c2nc3c(cc2O)-c2nc(cs2)C(=O)NC(C(C)O)C(=O)NC(=C(C)OC)c2nc(cs2)C(=O)NC2c4nc(cs4)C(=O)NC(COC(=O)c4c5c6c(cccc6n4O)COC(=O)C(OC4CC(C)(O)C(N(C)C)C(C)O4)C2OC5)c2nc-3cs2)n1)C(N)=O (stereo not shown)  lung bacterial load (Streptococcus pneumoniae; -4, immunocompromised mice, lung infection; 32 mg/kg/day, twice daily, 24 h post-dose): 4.16 log CFU/g
C[n+]1cc(/C=N/NC(=O)c2cccc(C(=O)N/N=C/c3cc4ccccc4[n+](C)c3)n2)cc2ccccc21  ΔTm (myc22 MYC G4-DNA parallel; FRET melting; 1 µM, K1 buffer, DNA 0.2 µM, together with: ds26 10 µM): 17.5 ± 0.8 °C
COC1CN([C@H]2CC[C@H]([C@@]3(C)Oc4c(Cl)cc(C(=O)NCc5c(SC)cc(C)[nH]c5=O)c(C)c4O3)CC2)C1  log2 fold change (RNA-seq, refers to: ACKR2 mouse homolog; mouse, HT-1376 xenograft, whole blood; dose not given; baseline: vehicle): 0.552
CN1CCCNC(=O)c2cccc(c2)C(=O)NCCCN(C)CCCNc2cccc3c2C(=O)c2cccc(c2C3=O)NCCC1  log2 fold change (SAS; RNA-Seq, refers to: TTC14 mRNA; 1 µM, 6 h; baseline: untreated cells): -1.94
Cc1cccc2c1N(C(=O)n1ccnn1)CC2  Kd (KAI2 (Arabidopsis thaliana, UniProt Q9SZU7, L142A); ITC; L142A mutant, mean): 10400 nM
C[n+]1ccc(/C=N/NC(=O)C(=O)N/N=C/c2cc[n+](C)c3ccccc23)c2ccccc21  ΔTm (myc22 MYC G4-DNA parallel; FRET melting; 1 µM, K1 buffer, DNA 0.2 µM): 3.7 ± 0.5 °C
C=CC(=O)Nc1cccc(Cn2ncc3cnc(Nc4cnn(CCOC)c4)nc32)c1  percent of control (TTK human; binding, KINOMEscan; 100 nM; lower = stronger binding): 59%
C[n+]1cc(/C=N/NC(=O)c2ccc3ccc(C(=O)N/N=C/c4cc5ccccc5[n+](C)c4)nc3n2)cc2ccccc21  ΔTm (myc22 MYC G4-DNA parallel; FRET melting; 1 µM, K1 buffer, DNA 0.2 µM): 17.2 ± 0.3 °C
Nc1ncc(-c2cc(-c3cnn(CC(F)(F)F)c3)ncc2F)nc1C(=O)NC1CNCC(F)C1 (stereo not shown)  remaining binding (TIE2; KINOMEscan competition binding; 1 µM; baseline: DMSO control): 86%
COc1ccc(C(=O)CCc2cc(C(CCc3ccc(O)cc3OC)c3ccc(O)cc3)c(O)cc2OC)cc1 (racemic)  20-OH-LTB4 level (human blood; 1 µM, together with: A23187): 566 ± 227 pg/mL
CC(CCC(=O)NCc1ccc(C(=O)NO)cc1)C1CCC2C3C(O)CC4CC(O)CCC4(C)C3CCC12C (stereo not shown)  relative abundance (refers to: TUDCA; PCK rat (Pkhd1 mutant), portal blood; oral gavage, dose not given, 5 months; baseline: total bile acids): 5.15%
CCCCNCCO.O=C(O)C(Cl)Cl  inhibition (Amaranthus retroflexus; herbicidal activity; 15 mg/mL, 21 days, post-emergence greenhouse): 0%
Cc1ncsc1-c1ccc(C(C)NC(=O)C2CC(O)CN2C(=O)C(NC(=O)CCCCCCCCCCN2CCCC(Nc3ncc(Cl)c(Nc4ccccc4S(=O)(=O)C(C)C)n3)C2)C(C)(C)C)cc1 (stereo not shown)  log2 fold change (22Rv1; RNA-seq, refers to: USP51 mRNA; concentration not given; baseline: DMSO): -7
CCCC[C@H](NC(=O)COCCOCCNC(=O)CN1CCN(CC(=O)O)CCN(CC(=O)O)CC1)C(=O)N[C@H]1CC(=O)NCCCC[C@@H](C(N)=O)NC(=O)[C@H](Cc2c[nH]c3ccccc23)NC(=O)[C@H](CCCNC(=N)N)NC(=O)[C@@H](Cc2ccccc2)NC(=O)[C@H](Cc2c[nH]cn2)NC1=O [technetium-99m labelled]  tissue uptake (C57 mouse, tumor; intravenous, 0.037 MBq, 2 h): 31.9 ± 2.57 %ID/g
O=C1C2CC3CC1CC(C(=O)N1CCN(c4ccc([N+](=O)[O-])c5ncccc45)CC1)(C3)C2  revertant fold increase (Salmonella typhimurium; Ames test; TA100; 0.05 µg/well, with S9; baseline: vehicle): 1
COc1cc(O)ccc1CCC(c1ccc(O)cc1)c1cc2c(c(C)c1O)OC(c1ccc(O)cc1)CC2 (mixture of isomers)  EPA level (human blood; 30 µM, together with: A23187): 73500 ± 18000 pg/mL
C[n+]1cc(NC(=O)c2ccc3ccc4ccc(C(=O)Nc5cc6ccccc6[n+](C)c5)nc4c3n2)cc2ccccc21  delta Tm (G-quadruplex DNA 22CTA antiparallel; UV melting; 6 µM, K10 buffer, together with: DNA 3 µM): > 40 °C
Cc1nn(-c2cccc(N)c2)c(=O)c2cnc(Nc3ccc(N4CCNCC4)cc3)nc12  IC50 (MAPK14 (Homo sapiens, UniProt Q16539); kinase activity, inhibitor, SelectScreen kinase profiling): > 10000 nM
CCN(CC)CC(=O)Nc1cccc(-n2cc(-c3ccc4ccc(-c5cn(-c6cccc(NC(=O)CN(CC)CC)c6)nn5)cc4c3)nn2)c1  fold regulation (RCC4; PCR angiogenesis array, refers to: NRP1; 5 x IC50, 4 h, normoxia; baseline: untreated): -1.11
CC(O)CNCC(C)O.O=C(O)C(Cl)Cl (stereo not shown)  herbicidal inhibition (Eclipta prostrata; 15 mg/mL, 21 days, post-emergence, greenhouse): 0%
CNS(=O)(=O)Nc1nccc(Cc2c(C)c3ccc(Oc4ncccc4F)cc3oc2=O)c1F  IC50 (A4/Fuk; cell viability, CellTiter-Glo; 7 days): 115 nM
CC[C@@H]([C@H](C)c1ccc(O)cc1)[C@H](CC)c1ccc(O)cc1  EC50 (Estrogen receptor (ESR1, Homo sapiens, UniProt P03372); reporter gene, luciferase reporter (3xERE); 293T; 24 h): 78.4 nM
CCN(CC)CC#CCNc1ccnc2cc(Cl)ccc12  revertants (Salmonella typhimurium; mini-Ames test; TA100; 500.0 µg/well, with rat liver S9): 15 revertants/well
O=C(N/N=C/c1ccc2c(ccc[n+]2Cc2ccccc2)c1)c1cccc(C(=O)N/N=C/c2ccc3c(ccc[n+]3Cc3ccccc3)c2)c1  ΔTm (myc22 MYC G4-DNA parallel; FRET melting; 1 µM, K1 buffer, DNA 0.2 µM, together with: ds26 10 µM): 10.6 ± 0.2 °C
CC[C@H](C)[C@H](NC(=O)C[C@H](NC(=O)CN1CCN2CCN(CC1)CC(=O)[O][Al]([18F])[O]C(=O)C2)C(=O)O)C(=O)N[C@H]1CCc2cccc3c2N(C1=O)[C@H](C(=O)NCc1cn[nH]n1)C3  tracer uptake (MC-38 tumour model; host not given, kidney; 30 min, tumour-bearing): 4.27 %ID/g
CC(C)c1ccc(N(C)c2ccc3c(c2)OCC[C@H]3CNc2cnccc2C(=O)O)cc1  IC50 (Caov-3; cell growth or viability, ATP luminescence; 7 days): 6.47 nM
C=CC(=O)N1[C@H](c2ccc3c(c2)OCO3)c2[nH]c3ccccc3c2C[C@@H]1C(=O)N1CCN(C)CC1  relative co-enrichment (human cyclin E1 N112C-3xFLAG:CDK2; co-IP with TMT proteomics, refers to: HSPA5; concentration not given, P11021; baseline: wild type DMSO): 103%
CC(C)OCCOCc1ccc(OCC(O)CN(N=O)C(C)C)cc1 (stereo not shown)  revertant fold increase (Salmonella typhimurium; Ames test; TA1535; 158 µg/plate, 30 % rat S9; baseline: solvent control): 0.9 fold
